Published values from different studies.
Values joined by “and” are separate records of one study, mostly repeats; a detail may differ. ± gives the spread as reported.
B1: UGT1A9 (Homo sapiens, UniProt O60656); chain GKLLVVPMDGSHWFTMRSVVEKLILRGHEVVVVMPEVSWQLGRSLNCTVKTYSTSYTLEDLDREFKAFAHAQWKAQVRSIYSLLMGSYNDIFDLFFSNCRSLFKDKKLVEYLKESSFDAVFLDPFDNCGLIVAKYFSLPSVVFARGILCHYLEEGAQCPAPLSYVPRILLGFSDAMTFKERVRNHIMHLEEHLLCHRFFKNALEIASEILQTPVTEYDLYSHTSIWLLRTDFVLDYPKPVMPNMIFIGGINCHQGKPLPMEFEAYINASGEHGIVVFSLGSMVSEIPEKKAMAIADALGKIPQTVLWRYTGTRPSNLANNTILVKWLPQNDLLGHPMTRAFITHAGSHGVYESICNGVPMVMMPLFGDQMDNAKRMETKGAGVTLNVLEMTSEDLENALKAVINDKSYKENIMRLSSLHKDRPVEPLDLAVFWVEFVMRHKGAPHLRPAAHDLTWYQYHSLDVIGFLLAVVLTVAFITFKCCAYGYRKCLGKKGRVKKAHKSKTH

Substance	tested on	test	test system	setting	scale	endpoint	result
Insulin human		ELISA	rat, Sprague-Dawley, male, olfactory bulb	intranasal, 20 µg per nostril, 15 min		concentration	180 ± 62 pg/mg tissue
insulin		HPLC-UV	diabetic rat, plasma	oral, 40 IU/kg		Cmax	4200 ± 6.55e+06 ng/mL
teriparatide		ELISA	healthy women	sc, 20 µg single dose, reference product, arithmetic mean		t1/2	42.1 ± 17.2 min
insulin degludec		ELISA	human mild renal impairment, serum	dose not given, single dose	relative to: impaired over normal renal function	AUC(0-inf) ratio	1.11
CSCC[C@H](NC(=O)[C@H](CC(C)C)NC(=O)[C@H](Cc1c[nH]cn1)NC(=O)CNC(=O)[C@@H](NC(=O)[C@H](C)NC(=O)[C@H](Cc1c[nH]c2ccccc12)NC(=O)[C@H](CCC(N)=O)NC(=O)CCCCCNC(=O)[C@H](CCC(=O)NCCCC[C@@H]1NC(=O)[C@@H](Cc2ccc(O)cc2)NC(=O)[C@H](CC(=O)O)NC(=O)CNC(=O)[C@H](CCCNC(=N)N)NC1=O)NC(=O)CN1CCN(CC(=O)O)CCN(CC(=O)O)CC1)C(C)C)C(N)=O [copper-64 labelled]			ICR SCID mouse, female, kidneys	intravenous, 750 kBq, 1 h		tissue uptake	4.65 ± 0.78 %ID/g
oxyntomodulin			K2-EDTA human plasma	three freeze-thaw cycles		freeze-thaw stability	unstable
insulin aspart		UPLC-MS/MS	human, healthy subjects, plasma	subcutaneous, 0.2 U/kg single dose, 6 h, euglycaemic clamp		AUC(0-t)	7.79 ng·h/mL
rnpA F107W (Bacillus subtilis)		NMR, measured: His22		25 °C, 1.00 M NaCl, folded, sulfate-bound, numbering of the source, added: sulfate 20 mM		pKa	5.99
CC(C)[C@H](NC(=O)[C@@H]1CCCN1C(=O)[C@H](CCCNC(=N)N)NC(=O)[C@H](CS)NC(=O)[C@H](Cc1c[nH]c2ccccc12)NC(=O)[C@H](CCCNC(=N)N)NC(=O)[C@@H](Cc1ccccc1)NC(=O)[C@H](Cc1c[nH]cn1)NC(=O)[C@H](CCC(=O)O)NC(=O)[C@H](CS)NC(=O)[C@H](CS)NC(=O)[C@H](CCCCN)NC(=O)[C@@H]1CC(=O)N[C@@H](CCCNC(=N)N)C(=O)N[C@@H](C)C(=O)N[C@@H](CC(=O)O)C(=O)N[C@H](Cc2ccc(O)cc2)C(=O)N1)C(N)=O [technetium-99m labelled]			C57 mice, spleen	intravenous, 0.037 MBq, 4 h		tissue uptake	0.37 ± 0.26 %ID/g
B1 (UGT1A9)	O=c1cc(-c2ccc(O)c(O)c2)oc2cc(O)cc(O)c12	steady-state kinetics		pH 7.4, 37 °C		Km	0.33 µM and 0.17 µM
insulin icodec			human type 2 diabetes, serum	subcutaneous, 175 U, 840 h, added: 0.5 mg semaglutide		AUC(0-t)	20.3 µM·h
COc1cccc2c1C(=O)c1c(O)c3c(c(O)c1C2=O)C[C@@](O)(C(=O)CO)C[C@@H]3O[C@H]1C[C@H](NC(=O)[C@@H]2CCCN2C(=O)CN)[C@H](O)[C@H](C)O1			mouse, E0771 tumour-bearing, tumor	intravenous, 92 µmol/kg PhAc-ALGP-Dox		AUC	59.6 µM·h
insulin glulisine			obese type 2 diabetes patients, serum	subcutaneous, 0.2 U/kg, geometric mean		AUC(0-1 h)	0.000272 µM·h

Some of these lines once more:
Substance	tested on	test	test system	setting	scale	endpoint	result
B1 (UGT1A9)	O=c1cc(-c2ccc(O)c(O)c2)oc2cc(O)cc(O)c12	steady-state kinetics		pH 7.4, 37 °C		Km	0.33 µM and 0.17 µM
